Measured values of several laboratories.
Parts stem from different laboratories: compare values within a part only. Positions count from the first letter of the parent shown.

Set 1 — technique: universal PBM; molecule type: double-stranded DNA, one strand shown; matrix: in vitro; tested at: not given; direction: higher = stronger binding
Target: Sal-like protein 4, full length isoform B (SALL4, Homo sapiens, UniProt Q9UJQ4-2, residues 1-616)
Notes: 8-mer, flanks averaged, mean of replicates
Construct (chain): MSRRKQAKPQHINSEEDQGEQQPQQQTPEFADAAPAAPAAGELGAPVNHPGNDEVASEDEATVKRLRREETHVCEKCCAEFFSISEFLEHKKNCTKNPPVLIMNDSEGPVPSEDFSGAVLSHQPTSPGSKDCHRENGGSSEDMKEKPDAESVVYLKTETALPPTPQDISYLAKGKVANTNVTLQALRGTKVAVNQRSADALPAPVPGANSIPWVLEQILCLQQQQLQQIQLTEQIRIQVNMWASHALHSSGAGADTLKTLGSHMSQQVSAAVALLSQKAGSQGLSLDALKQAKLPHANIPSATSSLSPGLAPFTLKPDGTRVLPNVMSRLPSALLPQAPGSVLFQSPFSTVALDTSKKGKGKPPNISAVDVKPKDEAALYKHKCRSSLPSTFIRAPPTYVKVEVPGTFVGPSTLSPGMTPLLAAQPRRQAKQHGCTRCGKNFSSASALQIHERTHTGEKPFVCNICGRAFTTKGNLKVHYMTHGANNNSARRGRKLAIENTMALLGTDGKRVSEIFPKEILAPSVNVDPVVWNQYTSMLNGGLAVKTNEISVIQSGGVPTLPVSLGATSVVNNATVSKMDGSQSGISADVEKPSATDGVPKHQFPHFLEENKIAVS
Oligonucleotide | E-score
CAATAGCA | 0.112
GGGGGACC | -0.405
AGTCCTAG | -0.0138
CGCGCATA | 0.0284
CGTCTTCC | -0.164
CATGCCGA | 0.00108
CGGCGGTC | -0.356
CGATATTC | 0.0621
AATCCCAT | 0.162
ACGTTAGT | 0.116
AGAGCCTA | -0.0574
ATCGAGCG | -0.168
GACCGATC | -0.12
AGAATGAC | 0.092
ATGGGCGG | -0.181
GATTCCCA | 0.00072
CCGAATAG | 0.0321
CTCACCCC | -0.252
ACAGAGTA | 0.131
CCACGTCG | -0.226
AAGTTCGC | -0.262
CTGTATAC | 0.232
GGGCCTCA | -0.292
AAATCCTA | 0.139
GCACGGGA | -0.224

Set 2 — technique: RNA Bind-n-Seq; molecule type: RNA; matrix: in vitro; tested at: 1 µM; notes: whole 134-nt RNA, ends assumed; together with: 150 mM KCl; relative to: input library; direction: higher = stronger binding
Target: Ras GTPase-activating protein-binding protein 1, RRM domain (G3BP1, Homo sapiens, UniProt Q13283)
Chain of UniProt Q13283 (whole entry, looked up): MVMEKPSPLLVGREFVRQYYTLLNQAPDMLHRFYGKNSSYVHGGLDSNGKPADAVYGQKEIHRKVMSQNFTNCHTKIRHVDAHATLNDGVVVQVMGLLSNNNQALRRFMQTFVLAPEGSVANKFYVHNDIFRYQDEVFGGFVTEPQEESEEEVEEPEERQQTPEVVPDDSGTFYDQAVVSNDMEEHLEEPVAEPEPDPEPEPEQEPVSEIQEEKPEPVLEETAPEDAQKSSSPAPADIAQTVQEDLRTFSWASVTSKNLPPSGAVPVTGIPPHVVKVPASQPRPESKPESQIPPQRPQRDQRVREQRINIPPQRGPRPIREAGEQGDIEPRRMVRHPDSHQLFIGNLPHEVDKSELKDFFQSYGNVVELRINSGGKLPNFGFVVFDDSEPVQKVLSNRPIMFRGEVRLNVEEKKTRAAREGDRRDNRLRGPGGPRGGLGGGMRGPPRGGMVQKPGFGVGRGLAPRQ
Constant ends, left off below: GGGAGUUCUACAGUCCGACGAUC … UGGAAUUCUCGGGUGUCAAGG
Oligonucleotide | log2 enrichment
AGUCCUGUGCUACACAUCGUAUGUACCGAAUCAAACCCCCAAACCCAAACCCCCAAAAAAGUAUUAUGUUACGCCGUUCGGAUCUGCACU | -0.21
CCUGUGCUACACAUCGUAUGUACCGAAUCGGGGCCCCCCGGGCCCCCCGGGGCCCCCCGGAAAGUAUUAUGUUACGCCGUUCGGAUCUGC | -0.766
AGUCCUGUGCUACACAUCGUAUGUACCGAAUCGGGAAAAAGGGAAAAAGGGAAAGGGAAAGUAUUAUGUUACGCCGUUCGGAUCUGCACU | 0.296
GUCCUGUGCUACACAUCGUAUGUACCGAAUCGGGAGGGAAAAAAAGGGAAAAAAAGGGAAAGUAUUAUGUUACGCCGUUCGGAUCUGCAC | 0.438
UCAAGUCCUGUGCUACACAUCGUAUGUACCGAAUCGGGUGGGUGGGUUUUUGGGAAAGUAUUAUGUUACGCCGUUCGGAUCUGCACUUCC | 0.699
UCCUAGUCCUAGGAAAACUCCAGUUGCCAGUGAUCAACGCCGUAGGUCCUGCAAAACAGCCCCUGCUUCCAGCAGCAAAUCUCAGACAGA | -0.0706
UCAAGUCCUGUGCUACACAUCGUAUGUACCGAAUCGGGCCCGGGCCCGGCCCGGGAAAGUAUUAUGUUACGCCGUUCGGAUCUGCACUUC | -0.592
CUCAAGUCCUGUGCUACACAUCGUAUGUACCGAAUCGGUUUUUUUGGUGGAGGAAAGUAUUAUGUUACGCCGUUCGGAUCUGCACUUCCA | -0.27
UGGCCCUGGUGGCAUGCGGGGAGGAAGAGGUGGCCUCAUGGAUCGUGGUGGUCCCGGUGGAAUGUUCAGAGGUAGCCGUGGUGGAGACAG | 1.46

Set 3 — technique: RNA Bind-n-Seq; molecule type: RNA; matrix: in vitro; tested at: 365 nM; relative to: no-protein control; direction: higher = stronger binding
Target: RNA binding protein fox-1 homolog 2, RRM domain, GST-SBP tag (RBFOX2, Homo sapiens, UniProt O43251-10, residues 100-194)
Notes: natural RNA segment, single round, ends assumed
Constant ends, left off below: GGGAGUUCUACAGUCCGACGAUC … UGGAAUUCUCGGGUGCCAA
Residues (chain): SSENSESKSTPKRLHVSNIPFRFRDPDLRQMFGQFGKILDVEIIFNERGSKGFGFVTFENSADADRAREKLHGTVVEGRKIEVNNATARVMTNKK
Oligonucleotide | RBNS enrichment (R)
UUGUUUCUGUUCUUUUCCAUCCACUUUGUACUCAUUUGUUUUCAUUAAAUUUUGCAUUUAUUUUGAGUUUUUCAUGGUGUCAUUUUUGGGCAGUAGCUUCGCUGCUUCAG | 0.494
UUUGCCAAGGCCUUUAUUUUAAAGUGUUCUUGGAAAAUCGUAUUUAAAUUUGCAAUUAUUCUAAUUUGAUAUAGAGAGAAACUGACCUAUUUAACAAAUGGACUCUCUUA | 0.422
AUUGAGUAUAUGUUUACUCUGGGCCUGGGAGAACUUAACUUUCUAGAGCAGUUUGUUGACUUGUGUGCAAUGGGGAGAGGUACCAUGAUGACACUCACAGGGAGCCACUG | 5.98
UUAGGAGGACAAAAUGGGGUCAAGAGGACACAGAAGAGUUGUAUAGCACCAGAUUGGUUCCAAAUAGUUAAUGGAUGUGUGCACAUUUUCUGUUCAGGGAUUAAGACCAG | 2.69
CCCAGCACUACUCAGCAUGUAGUCCAGGACCUGCGGCAUCAGCAUCCCCUGGGAGCUUCUUAGAAAUGCAGACCUGUGGGCUCUACCACAGGCCUCUGGAAUCAGAAUCU | 4.57
UAUUUUCAGGAUCUGCUAUAAGGUUGAAAUUUAGCCCAGCUCUAGGCAUUUUACAAAUUAUUUUUCAAGCAGUCAUUCUUGAUUGUUUGACUUUUUUUUUUAAAUUAAAG | 0.349
GGAGCUGGGAUUCGGUUCCUUAACUUGAGUCCCAGGGGCAGCUUGGAUGAGAAACAGGCAUCUCCCAGGCUCCAAGCCUAUUUGGAGGUGACACGGUUGAGUGCUUCUGG | 0.397
UUUAAAAUUCCAGGCCGGGCGUGGUGGCUCACGACUGUAAUCCCAGAACUUUGGGAGGCCAAGGCAGGUGGAUCACUUGAGGUCAGGAGUUCGAGACUAGCCUGGCCAAC | 0.711

Set 4 — technique: DHFR PCA, deep sequencing; matrix: yeast; together with: (+)-ABA 17 µM; relative to: wild-type fitted maximum; direction: higher = stronger binding
Target: ABI1, truncated, D143A, DHFR fusion (Arabidopsis thaliana)
Notes: methotrexate growth selection, single substitutions
Starting sequence: PYL1, truncated, DHFR fusion (Arabidopsis thaliana); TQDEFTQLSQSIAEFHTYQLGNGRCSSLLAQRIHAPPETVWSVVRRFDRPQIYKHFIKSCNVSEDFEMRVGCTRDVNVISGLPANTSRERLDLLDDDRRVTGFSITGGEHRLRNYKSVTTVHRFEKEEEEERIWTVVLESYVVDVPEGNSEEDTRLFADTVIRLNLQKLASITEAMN; partner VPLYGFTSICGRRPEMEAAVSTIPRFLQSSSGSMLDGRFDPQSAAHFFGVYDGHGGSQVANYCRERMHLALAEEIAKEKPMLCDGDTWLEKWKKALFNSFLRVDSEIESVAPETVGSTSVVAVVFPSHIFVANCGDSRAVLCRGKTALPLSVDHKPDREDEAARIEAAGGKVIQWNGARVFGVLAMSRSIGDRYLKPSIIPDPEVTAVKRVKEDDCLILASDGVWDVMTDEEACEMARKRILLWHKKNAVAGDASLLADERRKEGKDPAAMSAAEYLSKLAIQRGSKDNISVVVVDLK
Variant | relative binding score [%]
R111D | -1.99
Q10Y | 61.2
D48N | 43.9
Y115A | 0.873
C60T | 71.4
G107F | -0.783
I57P | -19.6
L138T | 1.71
W41P | 11.5
F56H | 1.57
V143Q | 3.9
V100Y | 15.7
E128C | 89.2
F157H | -2.93
F66A | 72.1
E89N | 7.66
N165Y | -24
R74N | -8.15
R45K | 65
Q31V | 44
E125M | 88.5
R123C | 73.4
Y18E | 50
P36N | 75.7
H16T | 6.37

Some of these lines once more (set 1):
Oligonucleotide | E-score
ATGGGCGG | -0.181
GATTCCCA | 0.00072
CCGAATAG | 0.0321
CTCACCCC | -0.252
ACAGAGTA | 0.131
